{"data": "Measurements pooled from the literature", "note": "Numbered parts are unrelated; each lists some results of a single study."}
{"data": "Study 1", "target": "Histone acetyltransferase KAT6A, both winged helices, GST fusion (KAT6A, Homo sapiens, UniProt Q92794, residues 1-181)", "method": "protein binding microarray", "molecule type": "double-stranded DNA, one strand shown", "medium": "in vitro", "concentration": "not given", "notes": "8-mer, flanks averaged, mean of 2 arrays, mostly near background", "baseline": "not given", "reading": "higher = stronger binding", "Residues (chain)": "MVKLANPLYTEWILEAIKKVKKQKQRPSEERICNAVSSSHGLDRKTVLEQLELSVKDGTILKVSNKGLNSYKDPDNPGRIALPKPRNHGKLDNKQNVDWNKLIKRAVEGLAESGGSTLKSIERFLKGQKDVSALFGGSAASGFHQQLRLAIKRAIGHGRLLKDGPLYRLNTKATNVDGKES"}
{"Sequence": "ACGGTCGA", "E-score": 0.163}
{"Sequence": "CTAACTCC", "E-score": -0.0908}
{"Sequence": "ACATTGCA", "E-score": -0.0569}
{"Sequence": "ATGTAATC", "E-score": -0.124}
{"Sequence": "GGGGATAC", "E-score": -0.0238}
{"Sequence": "ATGGCTAC", "E-score": -0.201}
{"Sequence": "AGCTCAGG", "E-score": -0.0328}
{"Sequence": "GTCGGGTA", "E-score": 0.132}
{"Sequence": "TAACTGAA", "E-score": -0.138}
{"Sequence": "ATGATACA", "E-score": -0.0474}
{"Sequence": "CAATCAGA", "E-score": -0.15}
{"Sequence": "AATTCGTC", "E-score": -0.014}
{"Sequence": "ACACTTAT", "E-score": -0.177}
{"Sequence": "CGGCGGCC", "E-score": 0.338}
{"Sequence": "CGACCTAC", "E-score": -0.0102}
{"Sequence": "ACGTAACT", "E-score": -0.0558}
{"Sequence": "AACGTAAT", "E-score": -0.111}
{"Sequence": "CCATGGCC", "E-score": -0.121}
{"Sequence": "AAAGCTAC", "E-score": -0.197}
{"Sequence": "GTTTGCCA", "E-score": 0.0355}
{"Sequence": "CTCGATTC", "E-score": -0.0197}
{"Sequence": "GGAAGATA", "E-score": -0.00668}
{"Sequence": "CGACCAGA", "E-score": -0.0173}
{"Sequence": "ACTAACAG", "E-score": -0.0626}
{"Sequence": "TAAATTTA", "E-score": -0.0669}
{"data": "Study 2", "target": "RNA binding protein fox-1 homolog 2, RRM domain, GST-SBP tag (RBFOX2, Homo sapiens, UniProt O43251-10, residues 100-194)", "method": "RNA Bind-n-Seq", "molecule type": "RNA", "medium": "in vitro", "concentration": "365 nM", "notes": "natural RNA segment, single round, ends assumed", "baseline": "no-protein control", "reading": "higher = stronger binding", "constant ends, left off below": "GGGAGUUCUACAGUCCGACGAUC … UGGAAUUCUCGGGUGCCAA", "Construct (chain)": "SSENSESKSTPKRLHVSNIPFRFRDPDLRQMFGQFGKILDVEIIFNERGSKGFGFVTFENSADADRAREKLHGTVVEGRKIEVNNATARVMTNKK"}
{"Sequence": "ACCCAGCCUGGGACUUCCCUGGAACUGAGGGAUGCAUAGCUGUCUGGGGAAGCACUGACGGCCACUCACUCACCCUGUGCUGCUGCAAGUUUGACAGAACCACAUCACAU", "RBNS enrichment (R)": 0.938}
{"Sequence": "CUCUUGGAGCUCCUGGCGCUCCCCACCCGGUGUCCCCAGUGGAAGGGAUGGGGUGAAGCCCAGAGUGGGGGGGGGCAAGGUGUUCUCCCUCUGCAAGUGGAAUGUUACCC", "RBNS enrichment (R)": 2.66}
{"Sequence": "GCAGCCUAGGGGGCACUGCCCUACAGAAAAGGUCUGCCUGAGAGGCCUGAGGAGCCCAGAGCACUUGACUGAGCUUCCCGGAAACUGGCCCUAACCUGUCUGUCUCCGUG", "RBNS enrichment (R)": 0.164}
{"Sequence": "UCUCCUAACUUUCUGCUUUAGCGUAAUUGCUCAGAGUAGAGAGCCCCCACAAAGUUAUUUAAAAGAUGCCCUAGCAGCAAUCCACCAGUUUUUCUAAGCUAGAACCUUUG", "RBNS enrichment (R)": 0.441}
{"Sequence": "GAGAAAGGACACUGGAUUGAGCUUCUGAAAUGCCACUGGUAGCUCUGUAACAUGGGAAUGGAAAUGUCCCUCUCUGGGCCUGUGUUUCUUUGUGUGUCCAGUGAAGGAAC", "RBNS enrichment (R)": 0.988}
{"Sequence": "UAUGGGGAAGCCCUUUGGCUUCAGAUUGCCUAUGUUUGAAUAAUAAUAAUAAUAGAUGGCCUAUUGUAAUGGUUAUGUUGCUUUUUUUCUUACCCUCCACCAGAGUCUUG", "RBNS enrichment (R)": 0.879}
{"Sequence": "CUUUGCAUGGUGCUUAGUCAAGGACUCCUGCGACCUGGCUCCCGAGGUCAGCUGGCGGCGCUGACACACAUGCAUGGCAGACUAUCCCUGGCUCUAUCUCCCUGUUCCUC", "RBNS enrichment (R)": 14.6}
{"Sequence": "AGGAAAGGGUCAACACUAAGGGGAGACUGUUGUUGUUGUUGUUGUUGUUGUUGUUGUUGUUUUUCCUUAAUUUGAAAUCAUCUUAUUUUUUAAGACAAAUGUGAAAAUGA", "RBNS enrichment (R)": 2.11}
{"data": "Study 3", "target": "Prothrombin, mature alpha-thrombin (F2, Homo sapiens, UniProt P00734)", "method": "aptamer microarray, sandwich", "molecule type": "DNA with 2'F-ANA", "medium": "in vitro", "concentration": "200 nM", "notes": "whole 15-mer aptamer, many near background", "with": "Cy3 exosite-II aptamer, 400 nM", "reading": "higher = stronger binding", "sequence": "GGTTGGTGTGGTTGG"}
{"Modification": "2'F-ANA at 1 6 7 8 12 15", "mean fluorescence intensity": "454 a.u."}
{"Modification": "2'F-ANA at 1 4 7 9 10 12", "mean fluorescence intensity": "56.6 a.u."}
{"Modification": "2'F-ANA at 1 8 11 12 13", "mean fluorescence intensity": "300 a.u."}
{"Modification": "2'F-ANA at 2 3 6 9 11 13 14", "mean fluorescence intensity": "338 a.u."}
{"Modification": "2'F-ANA at 1 2 4 5 6 7 9 10 11 12 13 14 15", "mean fluorescence intensity": "64.2 a.u."}
{"Modification": "2'F-ANA at 1 2 3 4 5 8 12", "mean fluorescence intensity": "125 a.u."}
{"Modification": "2'F-ANA at 1 4 5 10 12 14", "mean fluorescence intensity": "43.5 a.u."}
{"Modification": "2'F-ANA at 2 4 6 11 13 14", "mean fluorescence intensity": "76.9 a.u."}
{"Modification": "2'F-ANA at 2 4 6 8 9 11 14", "mean fluorescence intensity": "75.6 a.u."}
{"Modification": "2'F-ANA at 2 8 14", "mean fluorescence intensity": "164 a.u."}
{"Modification": "2'F-ANA at 2 3 7 8 10 14", "mean fluorescence intensity": "341 a.u."}
{"Modification": "2'F-ANA at 1 3 4 6 7 11 12 14", "mean fluorescence intensity": "71.6 a.u."}
{"Modification": "2'F-ANA at 2 6 8 11 12 13 14 15", "mean fluorescence intensity": "117 a.u."}
{"Modification": "2'F-ANA at 2 4 5 10 11 12 13", "mean fluorescence intensity": "50.1 a.u."}
{"Modification": "2'F-ANA at 1 4 5 6 7 10 11 12 13", "mean fluorescence intensity": "46.1 a.u."}
{"Modification": "2'F-ANA at 2 3 4 6 9 11 12 14", "mean fluorescence intensity": "259 a.u."}
{"Modification": "2'F-ANA at 1 3 4 9 12 14 15", "mean fluorescence intensity": "83.1 a.u."}
{"Modification": "2'F-ANA at 1 7 10 11 12 13 15", "mean fluorescence intensity": "112 a.u."}
{"Modification": "2'F-ANA at 1 4 7 9 10 11 12 13", "mean fluorescence intensity": "54.1 a.u."}
{"data": "Study 4", "target": "Hepatocyte nuclear factor 3-alpha (Foxa1, Mus musculus, UniProt P35582, residues 1-468, full length assumed)", "method": "EMSA with sequencing", "molecule type": "double-stranded DNA, one strand shown", "medium": "in vitro", "concentration": "10 and 20 nM", "notes": "whole designed probe, mean of two concentrations, ends assumed", "baseline": "negative control set to 0", "reading": "higher = stronger binding", "constant ends, left off below": "GTGAGCGGTGCCCATTGATGGGGAAC … TTTCACTGGGATCGTGGGGAC", "sequence of UniProt P35582 (whole entry, looked up)": "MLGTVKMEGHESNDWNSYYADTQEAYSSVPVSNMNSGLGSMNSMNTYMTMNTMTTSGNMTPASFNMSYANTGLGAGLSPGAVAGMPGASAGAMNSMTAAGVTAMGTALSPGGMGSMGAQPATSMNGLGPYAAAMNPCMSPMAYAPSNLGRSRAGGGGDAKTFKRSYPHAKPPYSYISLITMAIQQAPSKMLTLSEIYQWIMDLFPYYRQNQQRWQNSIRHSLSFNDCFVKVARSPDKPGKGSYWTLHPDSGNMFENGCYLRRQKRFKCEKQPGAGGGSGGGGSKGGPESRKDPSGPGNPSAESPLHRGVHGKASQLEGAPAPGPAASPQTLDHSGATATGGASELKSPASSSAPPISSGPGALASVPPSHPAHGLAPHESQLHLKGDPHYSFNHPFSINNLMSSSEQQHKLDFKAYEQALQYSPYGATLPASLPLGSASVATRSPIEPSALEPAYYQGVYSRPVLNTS"}
{"Sequence": "CAGCTTTTCATATCTGGCCATCTTAGAGCAGGGGAGATTGAGAAACAGAGAGAGGAAGAACCAGGGAAAGAAGTCTGGCTCCAAGCCCAGTGGGTAATCTTGCTGGCTGCCTTCTCACACAGATTACTTTTCAAAAATGAAAAGGGAGTGTCCAGCTTCGTTTGGAATAAAGATGAGGAAATGACTCTCAGCT", "normalised bound fraction": "-0.0904 ratio"}
{"Sequence": "AATTTCCTGTGCTCTCTTTCCTGCCCTCATTCAAGTGGTCACCTTCCTTATTTCCCTCAGAAATACTCACAGAAGCTGTCAGAAGGGTTATGAGTCATCTCTCACGTGCTTGAACCCACATGTCTATCAGCCAACCTTGGTGTGGCTGGACCTCACATTCAGATTGCCCTTCTGTGATGGATGAACTTGTGTT", "normalised bound fraction": "-0.0559 ratio"}
{"Sequence": "GCCTAATTTGTCTCTTCCAGTAAAAGTATTTGAGAAATTTTCCATTGCCCAATACCTTCCCATGATGGAAAATACACTGCATGGAAGGTATGTGTAAATATTTGATTCGTGTTTTACTGATTTCAGTGTCACAACCTAGCAATCATTAACACTTCGAAAAACATACACCTGGTTAGTTGTTTCCAAAGTACAT", "normalised bound fraction": "0.146 ratio"}
{"Sequence": "CACTCGGCTCCCCAGAGGTCAGCGCACCCCAAGCCCAGAGGCCGGCTGGCCTCGGCACGTCTCACTCCACTATCTTCCCTCCTCCCTGAACTCAGATTACACAAGGCTGGTCTTGGCTCTGAGGCTGCTAGATTTTAAATGCAATCTCACTGGTGACTCACTGGTGCATCGTCATTTGGCTTTGCCTGGAATT", "normalised bound fraction": "-0.0364 ratio"}
{"Sequence": "ATCTTCCCCCTCTTCCTTGCCCCACCAGCTCACCTTCCCGGGTTATTTGCAGATAGGAAAATAAATAAAGCCGGCATTCGTTAACCCTCTTCTGGCGCAAACTGCTGTTTGCTCTGGATCTAACATGGTCCTTTGGCGACGCCAGGCTCCGGGAGAGCAAAGCACCGTGTCAGGGCCATGATCCGGGGTGGCC", "normalised bound fraction": "0.359 ratio"}
{"note": "Excerpt of the above (study 3):"}
{"Modification": "2'F-ANA at 1 3 4 9 12 14 15", "mean fluorescence intensity": "83.1 a.u."}
{"Modification": "2'F-ANA at 1 4 7 9 10 12", "mean fluorescence intensity": "56.6 a.u."}
{"Modification": "2'F-ANA at 2 4 6 8 9 11 14", "mean fluorescence intensity": "75.6 a.u."}
{"Modification": "2'F-ANA at 1 8 11 12 13", "mean fluorescence intensity": "300 a.u."}
